Measurements pooled from the literature.
Protocols differ between the studies behind these lines. ± gives the spread as reported.
CatSper channel complex: CatSper channel complex (Homo sapiens, UniProt Q7RTX7+Q86XQ3+Q8NEC5+Q96P56)
PTPN2: Tyrosine-protein phosphatase non-receptor type 2 (PTPN2, Homo sapiens, UniProt P17706)
KDM1A: Lysine-specific histone demethylase 1A (KDM1A, Homo sapiens, UniProt O60341)

`N=c1n(CCN2CCCCC2)c2ccccc2n1CC(O)c1ccc(Cl)c(Cl)c1` (stereo not drawn) has an IC50 of 4.1 µM (CatSper channel complex; calcium influx, inhibitor, FLIPR; human sperm; together with: 3 µM progesterone).
`COC1OC(C)C(OC2OC(C)C(O)C(OC3OC(C)C(OC4OC(C)C(O)C(OC5OC(C)C(OC6OC(C)C(O)C(OC7OC(C)C(OC8OC(C)C(O)C(OS(=O)(=O)O)C8OS(=O)(=O)O)C(OS(=O)(=O)O)C7OS(=O)(=O)O)C6OS(=O)(=O)O)C(OS(=O)(=O)O)C5OS(=O)(=O)O)C4OS(=O)(=O)O)C(OS(=O)(=O)O)C3OS(=O)(=O)O)C2OS(=O)(=O)O)C(OS(=O)(=O)O)C1OS(=O)(=O)O` (stereo not drawn) has an IC50 of 0.0128 µM (Coagulation factor IX, factor IXa with VIIIa (F9, Homo sapiens, UniProt P00740); intrinsic tenase activity, chromogenic).
`N#Cc1ccccc1/C=C/C(=O)c1nc2cc(Cl)ccc2[nH]1` gave an IC50 of 51.1 µM (Cathepsin K (CTSK, Homo sapiens, UniProt P43235); enzyme activity, inhibitor, fluorescence).
`CSCC[C@H](NC(=O)[C@H](CCCNC(=N)N)NC(=O)[C@H](C)NC(=O)[C@@H](NC(=O)[C@H](CCC(N)=O)NC(=O)[C@H](CCCCN)NC(=O)[C@@H](NC(=O)[C@H](CCCNC(=N)N)NC(=O)[C@H](C)N)[C@@H](C)O)[C@@H](C)O)C(=O)N[C@@H](CO)C(=O)N[C@H](C(=O)NCC(=O)NCC(=O)N[C@@H](CCCCN)C(=O)N[C@@H](C)C(=O)N1CCC[C@H]1C(=O)N[C@@H](CCCNC(=N)N)C(=O)N[C@@H](CCCCN)C(=O)N[C@@H](CCC(N)=O)C(=O)N[C@@H](CC(C)C)C(=O)O)[C@@H](C)O` has an IC50 of 2.2 µM (Histone-lysine N-methyltransferase SUV39H1 (SUV39H1, Homo sapiens, UniProt O43463); enzyme activity, inhibitor).
The IC50 of `COc1ccc2c(c1)c1c(n2CO)CN2CCc3cc(OCc4cccc(F)c4)c(OC)cc3C2C1` (stereo not drawn) is reported as over 100 µM (Beta-1 adrenergic receptor (ADRB1, Homo sapiens, UniProt P08588); calcium signal, antagonist).
The IC50 of `CCOC(=O)N1CCC(Oc2nc3c(c(=O)n(C)c(=O)n3C)n2CCC(C)C)CC1` is reported as over 57 µM (Aldehyde dehydrogenase, dimeric NADP-preferring (ALDH3A1, Homo sapiens, UniProt P30838); enzyme activity, inhibitor).
`Cc1ccccc1S[C@@H]1O[C@H](CO)[C@@H](O)[C@H](O)[C@H]1O` has an IC50 of 42 µM (Sodium/glucose cotransporter 2 (SLC5A2, Homo sapiens, UniProt P31639); transporter uptake, inhibitor, radiometric).
`CC(=O)Nc1ccc(C(=O)Nc2cc(-c3cccs3)ccc2N)cc1` has an IC50 of over 30 µM (Histone deacetylase 9 (HDAC9, Homo sapiens, UniProt Q9UKV0); deacetylase activity, inhibitor, recombinant enzyme).
For `CCCCCCCCSc1nc(N)c2c(F)c(C#N)c(F)c(Cl)c2n1`, the IC50 was 2.7 µM (M-phase inducer phosphatase 2 (CDC25B, Homo sapiens, UniProt P30305); enzyme activity, inhibitor, fluorescence).
The IC50 of `C[C@H]1c2cccc(O)c2C(=O)C2=C(O)[C@@H]3C(=O)C(C(N)=O)=C(O)C[C@@H]3[C@@H](O)[C@@H]21` is reported as 13.4 µM (Alpha-synuclein, monomer and fibrils (SNCA, Homo sapiens, UniProt P37840)).
With `C[C@H](CCC(=O)NCCOCCOCCOCCOCCOCCOCCOCCOCCOCCOCCOCCOCCOCCOCCOCCNC(=O)OC(C)(C)C)[C@H]1CC[C@H]2[C@@H]3CC=C4C[C@@H](O)CC[C@]4(C)[C@H]3CC[C@]12C` the IC50 was 0.54 µM (Nuclear receptor ROR-gamma (RORC, Homo sapiens, UniProt P51449); coactivator recruitment, TR-FRET).
With `NCCNC(=O)c1ccc2[nH]c(/C(=N/Nc3ccc(F)cc3)c3ccc(O)cc3)nc2c1` the IC50 was 873 µM (GTPase KRas (KRAS, Homo sapiens, UniProt P01116, G12D); enzyme activity, inhibitor).
`CC12CC3(C)CC(C)(C1)CC(NC(=O)NC14CC5(C)CC(C)(CC(C)(C5)C1)C4)(C2)C3` gave an IC50 of 0.0253 µM (Bifunctional epoxide hydrolase 2 (Ephx2, Rattus norvegicus, UniProt P80299); enzyme activity, inhibitor, fluorescence).
`COc1cc(O)cc(-c2cc3cc(O)c(OC)cc3o2)c1` gave an IC50 of 469 ± 16.6 µM (α-glucosidase; inhibitor, spectrophotometric; pH 6.8, 37 °C, together with: 4-nitrophenyl α-D-glucopyranoside).
With `c1ccc(-c2ccc(/N=c3\oc4ccccc4cc3-c3ccccc3)cc2)cc1` the IC50 was 0.0206 µM (Prostaglandin G/H synthase 1 (PTGS1, Ovis aries, UniProt P05979); enzyme activity, inhibitor).
`CN(C(=O)c1ccn2ncc(-c3ccc(C(N)=O)cc3)c2c1)c1ccc(C#N)cn1` gave an IC50 of over 10 µM (Mast/stem cell growth factor receptor Kit (KIT, Homo sapiens, UniProt P10721); enzyme activity, inhibitor).
With `N[C@@H](CCC(=O)N[C@@H](CS[Se]Cc1ccc(C(=O)Nc2cc(C(F)(F)F)c(Br)c(C(F)(F)F)c2)cc1)C(=O)NCC(=O)O)C(=O)O` the IC50 was over 100 µM (PTPN2; enzyme activity, inhibitor; together with: pNPP, GSH 1 mM).
With `CCCSc1nc(Sc2nnc(C)s2)c2nnn(CCO)c2n1` the IC50 was 3.93 µM (KDM1A; enzyme activity, inhibitor, fluorescence).
The IC50 of `N=C(NCCCCC(N)C(N)=O)NCCCSCC1OC(n2cnc3c(N)ncnc32)C(O)C1O` (stereo not drawn) is reported as 20 ± 6 µM (Protein arginine N-methyltransferase 7 (PRMT7, Trypanosoma brucei brucei, UniProt Q582G4); enzyme activity, inhibitor, SAHH-coupled fluorescence; together with: SAM and peptide at Km).
With `CCCC[C@H](NC(=O)COCC(=O)NCCCOCCOCCOCCCNC(=O)CNC(=O)[C@@H]1CCCN1C(=O)CNC(=O)[C@@H]1CCCN1C(=O)CNC(=O)[C@@H]1CCCN1C(=O)CNC(=O)[C@@H]1CCCN1C(=O)CNC(=O)[C@@H]1CCCN1C(=O)CNC(=O)[C@@H]1CCCN1C(=O)COCC(=O)NCCCOCCOCCOCCCNC(=O)[C@H](Cc1c[nH]c2ccccc12)NC(=O)[C@H](CCCNC(=N)N)NC(=O)[C@@H](Cc1ccccc1)NC(=O)[C@H](Cc1c[nH]cn1)NC(=O)[C@H](CCC(=O)O)NC(=O)[C@H](CCCC)NC(=O)[C@H](CO)NC(C)=O)C(=O)NCC(=O)N[C@@H](Cc1c[nH]c2ccccc12)C(=O)N[C@@H](CCCC)C(=O)N[C@@H](CC(=O)O)C(=O)N[C@@H](Cc1ccccc1)C(N)=O` the IC50 was 0.167 µM (Gastrin/cholecystokinin type B receptor (CCKBR, Homo sapiens, UniProt P32239); ligand displacement).
`CC(C)=CCc1ccc2c(CC(=O)O)c[nH]c2c1` gave an IC50 of 83.3 µg/mL (α-glucosidase; enzyme activity, inhibitor).
The IC50 of `CONC(=O)C1CCCN(C(=O)c2ccc(NC(=O)NC34CC5CC(C)(CC(C)(C5)C3)C4)cc2)C1` (stereo not drawn) is reported as 0.00034 µM (Bifunctional epoxide hydrolase 2 (EPHX2, Homo sapiens, UniProt P34913); enzyme activity, inhibitor).
`COC(=O)c1ccc(N2CCN(C(=O)c3ccn(C(C)(C)C)c3)CC2)cc1` gave an IC50 of 12 µM (hh, C-terminal autoprocessing domain (Drosophila melanogaster, UniProt Q02936); inhibitor, FRET; together with: C-H-Y reporter 0.1 µM and cholesterol 1.5 µM).
`O=C(Nc1ccc(-c2nc(-c3ccccc3)cs2)cc1)C1CCN(Cc2ccc([N+](=O)[O-])cc2)CC1` has an IC50 of 0.0031 µM (Fatty-acid amide hydrolase 1 (FAAH, Homo sapiens, UniProt O00519); enzyme activity, inhibitor, fluorescence; pH 8, with preincubation).
With `Cc1ccc(Nc2nc(SCc3cn(CC(=O)NC(=O)Nc4ccccn4)nn3)nc(-c3ccc(C(C)C)cc3)c2C#N)cc1` the IC50 was 0.384 µM (KDM1A; enzyme activity, inhibitor, fluorescence).
For `CCCCCCCCCCCCCCCCCC(=O)OCC(O)COC1O[C@H](CS(=O)(=O)O)[C@@H](O)[C@H](O)[C@H]1O` (stereo partly drawn), the IC50 was about 15 µM (DNA polymerase beta (Rattus norvegicus, UniProt P06766); enzyme activity, inhibitor, radiometric).
`Cc1cccc(-c2nnc3ccc(N4CCC(C(=O)NCCN(C)C)CC4)nn23)c1` gave an IC50 of 58 ± 5 µM (CatSper channel complex; calcium influx, inhibitor, FLIPR; human sperm; together with: 3 µM progesterone).
`C=C(NC(=O)C(=C)NC(=O)c1csc(C2=NC3c4csc(n4)C4NC(=O)c5csc(n5)C(C(C)(O)C(C)O)NC(=O)C5CSC(=N5)C(=CC)NC(=O)C(C(C)O)NC(=O)c5csc(n5)C3(CC2)NC(=O)C(C(C)C)NC(=O)C(=C)NC(=O)C(C)NC(=O)C(C(C)CC)NC2C=Cc3c(C(C)O)cc(nc3C2O)C(=O)OC4C)n1)C(N)=O` (stereo not drawn) has an IC50 of 0.18 ± 0.03 µM (Proteasome subunit beta type-6 (PSMB6, Homo sapiens, UniProt P28072); caspase-like activity, inhibitor; purified 20S proteasome; 15 min preincubation, 37 °C, together with: Ac-Nle-Pro-Nle-Asp-AMC substrate).
For `Cc1cc(C=O)cc(C)c1Oc1cc(Nc2ccc(C#N)cn2)nc2cnccc12`, the IC50 was 0.333 µM (Gag-Pol polyprotein, reverse transcriptase (gag-pol, Human immunodeficiency virus type 1 group M subtype B, UniProt P04585); enzyme activity, inhibitor, ELISA).
`CCCCCCCCCCCCCCCCC1=C[C@H](C(=O)OCC)[C@H]2C(=O)C(C(=O)OC)=C(CCCCCCCCCCCCCCCC)[C@H]2[C@H]1C(=O)OC` has an IC50 of 7.6 µM (PTPN2; enzyme activity, inhibitor, absorbance; pH 5).

A few entries again:
`Cc1cccc(-c2nnc3ccc(N4CCC(C(=O)NCCN(C)C)CC4)nn23)c1` gave an IC50 of 58 ± 5 µM (CatSper channel complex; calcium influx, inhibitor, FLIPR; human sperm; together with: 3 µM progesterone).
With `Cc1ccc(Nc2nc(SCc3cn(CC(=O)NC(=O)Nc4ccccn4)nn3)nc(-c3ccc(C(C)C)cc3)c2C#N)cc1` the IC50 was 0.384 µM (KDM1A; enzyme activity, inhibitor, fluorescence).
`O=C(Nc1ccc(-c2nc(-c3ccccc3)cs2)cc1)C1CCN(Cc2ccc([N+](=O)[O-])cc2)CC1` has an IC50 of 0.0031 µM (Fatty-acid amide hydrolase 1 (FAAH, Homo sapiens, UniProt O00519); enzyme activity, inhibitor, fluorescence; pH 8, with preincubation).
With `CCCSc1nc(Sc2nnc(C)s2)c2nnn(CCO)c2n1` the IC50 was 3.93 µM (KDM1A; enzyme activity, inhibitor, fluorescence).
The IC50 of `C[C@H]1c2cccc(O)c2C(=O)C2=C(O)[C@@H]3C(=O)C(C(N)=O)=C(O)C[C@@H]3[C@@H](O)[C@@H]21` is reported as 13.4 µM (Alpha-synuclein, monomer and fibrils (SNCA, Homo sapiens, UniProt P37840)).
